Assay results gathered from unrelated publications.
Each line is one published result; not all experiments were run side by side. ± marks the error that the study gave.
Target: Amine oxidase [flavin-containing] B (MAOB, Homo sapiens, UniProt P27338)
Sequence of UniProt P27338 (whole entry, looked up): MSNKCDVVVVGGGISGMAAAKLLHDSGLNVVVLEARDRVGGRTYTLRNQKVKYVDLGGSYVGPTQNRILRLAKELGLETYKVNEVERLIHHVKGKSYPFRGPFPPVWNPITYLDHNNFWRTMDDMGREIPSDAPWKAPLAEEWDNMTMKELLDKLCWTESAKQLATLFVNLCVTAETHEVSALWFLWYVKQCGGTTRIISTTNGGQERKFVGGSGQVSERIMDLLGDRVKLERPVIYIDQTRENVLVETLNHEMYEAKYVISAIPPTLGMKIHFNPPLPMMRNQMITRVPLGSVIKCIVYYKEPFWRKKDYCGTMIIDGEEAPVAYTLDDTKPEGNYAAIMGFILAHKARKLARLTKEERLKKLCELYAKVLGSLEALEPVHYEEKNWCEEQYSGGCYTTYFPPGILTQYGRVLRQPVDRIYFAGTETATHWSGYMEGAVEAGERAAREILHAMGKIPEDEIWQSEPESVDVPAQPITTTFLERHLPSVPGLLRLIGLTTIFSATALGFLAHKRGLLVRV

With `CCS(=O)(=O)N1CCN(CC(=O)Nc2ccc(/C=C/C(=O)c3ccc(OC)c(OC)c3)cc2)CC1` the inhibition was 52.9 ± 1.77% (enzyme activity, inhibitor, fluorometric; 1000 µM).
`C[C@H](NCc1ccc(-c2ccc(C(F)(F)F)cc2)cc1)C(N)=O` has an inhibition of over 99% (enzyme activity; 1 µM, added: kynuramine 50.0 µM).
With `Fc1cccc(COc2ccc(/C=N/NC(=S)Nc3ccccc3)cc2)c1` the remaining activity was 54.4% (enzyme activity, inhibitor, absorbance; 10 µM).
With `CC(=O)C1=C(C)NC(SCCCSc2nnc(Cc3ccccc3Nc3c(Cl)cccc3Cl)n2-c2ccc(Cl)c(Cl)c2)=NC1c1ccccc1` (stereo not shown) the selectivity ratio was 0.1 (fluorometric; relative to: IC50 hMAO-A over IC50 hMAO-B).
`NC1CC1c1ccc(NC(=O)C(CCc2ccccc2)NC(=O)OCc2ccccc2)cc1` (stereo not shown) has an inhibition of 42% (enzyme activity, inhibitor, HRP-coupled; 100 µM, added: benzylamine).
For `NC(=O)N/N=C/c1ccc(OCc2ccccc2)cc1`, the remaining activity was 13.4% (enzyme activity, inhibitor, absorbance; 10 µM).
The selectivity ratio of `COc1ccc(C2N=C(SCCCSc3nnc(Cc4ccccc4Nc4c(Cl)cccc4Cl)n3-c3ccc(Cl)c(Cl)c3)NC(C)=C2C(C)=O)cc1` (stereo not shown) is reported as 0.3 (fluorometric; relative to: IC50 hMAO-A over IC50 hMAO-B).
The selectivity ratio of `O=C1CCCC2=C1C(c1c[nH]c3ccccc13)n1c(sc(=Cc3c[nH]c4ccccc34)c1=O)=N2` (stereo not shown) is reported as 3.1 (enzyme activity; relative to: MAO-A IC50 over MAO-B IC50).
`CC(=O)C1=C(C)NC(SCCCSc2nnc(Cc3ccccc3Nc3c(Cl)cccc3Cl)n2-c2ccc(Cl)c(Cl)c2)=NC1c1ccc(Cl)cc1` (stereo not shown) gave a selectivity ratio of 0.7 (fluorometric; relative to: IC50 hMAO-A over IC50 hMAO-B).
For `NC1CC1c1ccc(NC(=O)C(Cc2ccccc2)NC(=O)OCc2ccc(Br)cc2)cc1` (stereo not shown), the inhibition was 29% (enzyme activity, inhibitor, HRP-coupled; 100 µM, added: benzylamine).

A few entries again:
With `CC(=O)C1=C(C)NC(SCCCSc2nnc(Cc3ccccc3Nc3c(Cl)cccc3Cl)n2-c2ccc(Cl)c(Cl)c2)=NC1c1ccccc1` (stereo not shown) the selectivity ratio was 0.1 (fluorometric; relative to: IC50 hMAO-A over IC50 hMAO-B).
